Experimental data gathered from unrelated publications.
Each numbered part is a random draw from the data of one study; scales do not carry over between parts.

Block 1
Target: PABPC1L2, full length, GST fusion (mouse, UniProt A0ABA7IW68)
Method: RNAcompete
Molecule type: RNA
Medium: in vitro
Concentration: 20 nM
Setting: 7-mer, probes averaged, single round
Relative to: mean of 7-mers
Reading: higher = stronger binding
Measurement: 7-mer Z-score
Target sequence (chain): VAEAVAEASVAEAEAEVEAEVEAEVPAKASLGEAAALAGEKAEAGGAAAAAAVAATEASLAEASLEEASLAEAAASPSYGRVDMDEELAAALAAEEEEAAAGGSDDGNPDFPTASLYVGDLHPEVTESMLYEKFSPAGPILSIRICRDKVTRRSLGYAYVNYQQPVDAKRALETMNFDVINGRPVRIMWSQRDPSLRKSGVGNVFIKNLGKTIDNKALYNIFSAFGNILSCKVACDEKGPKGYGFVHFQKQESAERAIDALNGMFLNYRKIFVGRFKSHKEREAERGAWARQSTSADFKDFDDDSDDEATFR
GAGUUCC: -0.277
CAUUCGC: -0.295
CUCCGAC: -0.298
CUCGCUC: -0.298
GAGGGGA: 0.309
ACCCAAA: 0.829
GCCACAG: -0.0536
AAGAAAU: 1.36
UGAUCAU: -0.124
UGCUCAU: -0.322
CCGAAGU: -0.249
CAGAAGU: -0.159
CUUCGCA: -0.257
UCCUGAU: -0.338
GUUUAGG: -0.175
GGGUGCG: 0.427
UCAUAGC: -0.197
GUCUGGA: -0.151
AGUUUGA: -0.365
CCAUACG: -0.204
AAGGGGC: 0.805
GACUACU: -0.0156
GGAGGUU: 0.0714
CGGACUA: 0.0225
GCACCGA: 0.0623

Block 2
Target: Ras GTPase-activating protein-binding protein 1, full length (G3BP1, Homo sapiens, UniProt Q13283)
Sequence of UniProt Q13283 (whole entry, looked up): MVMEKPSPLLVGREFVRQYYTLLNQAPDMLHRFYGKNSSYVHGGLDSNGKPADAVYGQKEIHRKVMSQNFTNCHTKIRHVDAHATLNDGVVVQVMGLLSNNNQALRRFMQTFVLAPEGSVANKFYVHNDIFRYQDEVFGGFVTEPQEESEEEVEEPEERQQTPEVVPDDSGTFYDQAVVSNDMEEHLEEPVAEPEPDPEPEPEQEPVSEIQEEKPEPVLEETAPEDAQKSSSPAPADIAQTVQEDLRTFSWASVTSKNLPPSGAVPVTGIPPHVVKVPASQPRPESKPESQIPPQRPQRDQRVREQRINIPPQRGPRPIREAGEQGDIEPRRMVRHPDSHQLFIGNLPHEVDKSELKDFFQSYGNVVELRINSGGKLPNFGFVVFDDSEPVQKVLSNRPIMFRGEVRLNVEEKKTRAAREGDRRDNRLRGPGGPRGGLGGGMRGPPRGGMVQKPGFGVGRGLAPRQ
Method: RNA Bind-n-Seq
Molecule type: RNA
Medium: in vitro
Concentration: 200 nM
Setting: whole 134-nt RNA, ends assumed
Added: 150 mM KCl
Relative to: input library
Reading: higher = stronger binding
Measurement: log2 enrichment
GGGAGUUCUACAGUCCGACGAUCCAAGUCCUGUGCUACACAUCGUAUGUACCGAAUCGGGAAAAGGAAAAGGGAAAAGGAAAGUAUUAUGUUACGCCGUUCGGAUCUGCACUUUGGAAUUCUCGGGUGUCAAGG: -0.878
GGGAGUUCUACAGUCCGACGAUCACCAUGCAGGUGGGCAUCUUUGGGAAGUGGGGCAAGGGGGGGAUAGCGAGGGGGGUAACACUUUGGGAACAGGUGGUCCCAGGUCGUUUCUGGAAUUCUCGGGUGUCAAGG: 0.98
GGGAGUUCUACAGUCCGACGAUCUCCUGUGCUACACAUCGUAUGUACCGAAUCGGGGUUUGGGGAAAGGGGUUUUUUUGGGGAAAGUAUUAUGUUACGCCGUUCGGAUCUGCAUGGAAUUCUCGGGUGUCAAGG: 0.842
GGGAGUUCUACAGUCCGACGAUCCCUCAAGUCCUGUGCUACACAUCGUAUGUACCGAAUCGGGGCGGCGGGGCGGAAAGUAUUAUGUUACGCCGUUCGGAUCUGCACUUCCAGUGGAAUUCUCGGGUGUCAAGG: 0.177
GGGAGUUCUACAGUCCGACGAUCUGGCCUUAUCACUCCUGGAGGCUUUUCAUCAGUGCCUGCUGGAAUGGAGACCCCUGAACUCAUUGAGCUGAGGAAGAAGAAGAUUGAGGAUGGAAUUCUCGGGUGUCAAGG: -1.26
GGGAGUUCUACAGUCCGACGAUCUGGCGCUGGUGGCAUGCGGGGAGGAAGAGGUGGCCUCAUGGAUCGUGGUGGUCCCGGUGGAAUGUUCAGAGGUGGCCGUGGUGGAGACAGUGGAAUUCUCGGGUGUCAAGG: 0.62
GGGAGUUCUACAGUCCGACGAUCGUCCUGUGCUACACAUCGUAUGUACCGAAUCGGGGUUUUUGGUUUUUGGGUUUUUGGGGAAAGUAUUAUGUUACGCCGUUCGGAUCUGCAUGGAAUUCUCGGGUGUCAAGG: -0.468
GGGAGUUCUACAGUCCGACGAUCUAGUGAUGGUCCUAAAUAGCAUGAGUGUCAGCUGGAGCGCCCGGAUCCAGAUUUUCUUAACCUUUUGCAAGCUCACAGCAAUUCUGAUAAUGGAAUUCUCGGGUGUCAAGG: -0.583
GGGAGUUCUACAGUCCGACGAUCGUCCUGUGCUACACAUCGUAUGUACCGAAUCAAACCCCCAAAUUUAAACCCCCCCAAAAAAGUAUUAUGUUACGCCGUUCGGAUCUGCACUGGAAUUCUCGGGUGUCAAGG: -0.139

Block 3
Target: RING finger protein unkempt homolog, zinc fingers 1-6, SBP tag (UNK, Homo sapiens, UniProt Q9C0B0, residues 30-357)
Sequence of UniProt Q9C0B0 (30-357, looked up): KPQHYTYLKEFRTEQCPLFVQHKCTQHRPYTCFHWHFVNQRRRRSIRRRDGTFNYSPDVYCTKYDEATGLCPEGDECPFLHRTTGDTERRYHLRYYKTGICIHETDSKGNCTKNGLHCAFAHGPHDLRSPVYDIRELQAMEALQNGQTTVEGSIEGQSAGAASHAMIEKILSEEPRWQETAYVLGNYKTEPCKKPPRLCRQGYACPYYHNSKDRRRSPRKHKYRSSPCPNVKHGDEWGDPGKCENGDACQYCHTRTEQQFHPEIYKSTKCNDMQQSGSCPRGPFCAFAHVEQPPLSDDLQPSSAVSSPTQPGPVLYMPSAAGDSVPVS
Method: RNA Bind-n-Seq
Molecule type: RNA
Medium: in vitro
Concentration: 100 nM
Setting: RNA with constant flanks, ends assumed
Relative to: input RNA pool
Reading: higher = stronger binding
Measurement: bound/input enrichment
GGGAGUUCUACAGUCCGACGAUCGUGAUGUCCUUACUGUCCCCAGCCAGGGCCGGGGACCGGUGUUUCACUGAGGACCUGCAUCCGAAACAUUUUUUAAAUUGUUGUACAGGAAGAGAUGUGUCUAAAACAGCAUCUUAAAGCCAACAGAGGAUUGAGCAUCA: 0.278 ratio
GGGAGUUCUACAGUCCGACGAUCUAAUUCAAUGGUUGAGGGUUCAGAACUCAAAAAGGUUCGCUCCAACUCCCGAAUUUAUCACCGGUACUUUUUACUGGAUGCUGACAUGCAGAGCCUAAGGUGGGAGCCAUCUAAGAAGGACAACAGAGGAUUGAGCAUCA: 0.116 ratio
GGGAGUUCUACAGUCCGACGAUCGUACUGCCCGUGCAAAUCCCACAACACUGAAUGCAAAGCCGCAAUUUCCACCGUCACAGUCCGGCCGCUUCCGGGCAAUAUUGCCAUGGUUUUACUCAUGUGCAGGUUUUGAAAAUGUACCAACAGAGGAUUGAGCAUCA: 0.475 ratio

Block 4
Target: Interferon regulatory factor 7, full length, phosphomimetic (IRF7, Homo sapiens, UniProt Q92985, residues 1-503, S101K/S471D/S472D/S475D/S476D/S477D/S483D/S484D/S487D)
Method: protein-binding microarray
Molecule type: double-stranded DNA, one strand shown
Medium: in vitro
Concentration: 250 nM
Setting: 60-bp whole probe
Added: salmon DNA 0.4 mg/ml
Relative to: random background probes
Reading: higher = stronger binding
Measurement: log fluorescence
All sequences stand within: GCCTAGCAC … GTCTTGATTCGCTTGACGCTGCTG
Target sequence (chain): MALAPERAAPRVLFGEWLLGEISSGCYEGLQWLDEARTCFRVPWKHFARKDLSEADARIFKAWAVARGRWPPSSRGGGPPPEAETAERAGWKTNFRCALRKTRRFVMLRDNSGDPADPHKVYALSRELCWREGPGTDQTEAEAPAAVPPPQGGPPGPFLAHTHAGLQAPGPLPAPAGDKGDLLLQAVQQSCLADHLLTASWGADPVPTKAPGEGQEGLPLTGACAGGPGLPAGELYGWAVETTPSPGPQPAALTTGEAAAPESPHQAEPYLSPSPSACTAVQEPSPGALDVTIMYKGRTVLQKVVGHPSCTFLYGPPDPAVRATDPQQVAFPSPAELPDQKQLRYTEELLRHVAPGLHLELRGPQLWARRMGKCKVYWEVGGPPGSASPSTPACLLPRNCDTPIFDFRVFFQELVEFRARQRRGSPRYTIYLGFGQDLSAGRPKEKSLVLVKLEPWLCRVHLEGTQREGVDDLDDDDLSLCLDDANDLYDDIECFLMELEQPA
GACGGTCTCCATTTCCTGACGTGCTAG: 1.6 z-score
GAGGGTTCCGGTTTCGGGACGTGCTAG: 6.62 z-score
CTAGATATCAGTATCGATTAGTGCTAG: 1.59 z-score
GACGGTTTCGGTCTCTGGACGTGCTAG: 9.7 z-score
GACTAACTGAGTATCGAGACGTGCTAG: 0.19 z-score
TTAGATCTCAGTATCGCTTAGTGCTAG: 0.318 z-score
ATATATATTATATATTTATGTGTGCTA: 0.72 z-score
TTAGGTCTCCTCCTCCTTTAGTGCTAG: -0.331 z-score
TTAGGTCTCCTACTGCTTGAGTGCTAG: -0.262 z-score
GACGGTTTCGGGCATCGGGACGTGCTA: 2.18 z-score
TTAGAACAGGGGTTTCGATTAGTGCTA: 6.41 z-score
GACGGTTTCCTAATCCTGACGTGCTAG: 2.42 z-score
GTCGGTCTCGGTATCGGGACGTGCTAG: 2.88 z-score
TCATTTCTCCCAAGTCTTACTGTGCTA: 1.82 z-score
GACGGTTTCGGTATCGGGAGGTGCTAG: 10.8 z-score
CTTGCTTGGTGTCTCTGGCCGTGCTAG: -0.535 z-score
TTAGAACTGGTGTATCGATTAGTGCTA: -0.362 z-score
TCATCTTTACTTCACTCACTGTGCTAG: 0.735 z-score
TCAGATTGGTTGAACATACTGTGCTAG: -0.135 z-score

For quick reference, copied from above (block 2):
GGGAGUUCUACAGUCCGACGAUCGUCCUGUGCUACACAUCGUAUGUACCGAAUCAAACCCCCAAAUUUAAACCCCCCCAAAAAAGUAUUAUGUUACGCCGUUCGGAUCUGCACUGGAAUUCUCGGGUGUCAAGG: -0.139
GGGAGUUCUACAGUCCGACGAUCGUCCUGUGCUACACAUCGUAUGUACCGAAUCGGGGUUUUUGGUUUUUGGGUUUUUGGGGAAAGUAUUAUGUUACGCCGUUCGGAUCUGCAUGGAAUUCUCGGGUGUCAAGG: -0.468
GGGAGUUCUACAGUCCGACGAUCCAAGUCCUGUGCUACACAUCGUAUGUACCGAAUCGGGAAAAGGAAAAGGGAAAAGGAAAGUAUUAUGUUACGCCGUUCGGAUCUGCACUUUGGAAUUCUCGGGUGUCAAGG: -0.878
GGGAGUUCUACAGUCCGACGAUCACCAUGCAGGUGGGCAUCUUUGGGAAGUGGGGCAAGGGGGGGAUAGCGAGGGGGGUAACACUUUGGGAACAGGUGGUCCCAGGUCGUUUCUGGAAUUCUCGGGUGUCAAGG: 0.98
